Published values collected from several papers.
Parts stem from different laboratories: compare values within a part only. Positions count from the first letter of the parent shown.

Set 1
Target: CCNF, cyclin fold, Cln2 fusion (human)
Technique: yeast growth competition, sequencing
Matrix: yeast
Setting: strong parent motif
Baseline: not given
Direction: higher = stronger binding
Starting sequence: MICAL3 docking peptide (human); LQLRRQLSFSEDS
Under “normalised enrichment score”, `D12G` is recorded as 5.32.
Under “normalised enrichment score”, `L3V` is recorded as 7.48.
`F9K`: “normalised enrichment score” 0.403.
`L3M`: “normalised enrichment score” 3.49.
Under “normalised enrichment score”, `L3K` is recorded as 0.56.
For `R5G`, “normalised enrichment score” read -0.11.
For `S10N`, “normalised enrichment score” read 5.03.
`S10K` — result for “normalised enrichment score”: 4.07.
For `Q6A`, “normalised enrichment score” read 4.76.
`R4Q` — result for “normalised enrichment score”: 2.93.
`F9C` — result for “normalised enrichment score”: 0.423.
`E11C`: “normalised enrichment score” 6.14.
Under “normalised enrichment score”, `R5N` is recorded as 0.223.
Under “normalised enrichment score”, `R5Y` is recorded as 0.0243.
Under “normalised enrichment score”, `E11I` is recorded as 5.2.
Under “normalised enrichment score”, `Q2N` is recorded as 5.51.
`S8F` — result for “normalised enrichment score”: 8.28.
`D12F` — result for “normalised enrichment score”: 6.13.

Set 2
Target: OGT, full length, His-tagged (human)
Technique: phage display, sequencing
Matrix: in vitro
Concentration: 1 µg OGT
Setting: single substitutions, 15-mer displayed peptide, unchanged parent 16.7
Baseline: input library
Direction: higher = stronger binding
Starting sequence: peptide; NSEYMPQYQIIFAHQ
For `S2F`, the fold enrichment was 10.1 fold.
The fold enrichment of `Q9M` is reported as 14 fold.
`F12D` has a fold enrichment of 0.55 fold.
For `Q9A`, the fold enrichment was 5.2 fold.
With `I10Q` the fold enrichment was 0.581 fold.
With `P6I` the fold enrichment was 3.81 fold.
The fold enrichment of `E3P` is reported as 24.3 fold.
The fold enrichment of `P6A` is reported as 0.877 fold.
For `Q7W`, the fold enrichment was 9.83 fold.
With `F12I` the fold enrichment was 10.7 fold.
`Y8G` gave a fold enrichment of 0.716 fold.
For `I11N`, the fold enrichment was 11.6 fold.
`Q9R` gave a fold enrichment of 2.79 fold.
With `Q15F` the fold enrichment was 7.88 fold.
`I10N` has a fold enrichment of 0.297 fold.
The fold enrichment of `Y4E` is reported as 0.541 fold.
`I11E` gave a fold enrichment of 28.3 fold.
With `Y4V` the fold enrichment was 1.07 fold.
`H14Y` has a fold enrichment of 12 fold.
The fold enrichment of `M5A` is reported as 13 fold.
`Q9K` has a fold enrichment of 8.43 fold.

Set 3
Target: ABI1, truncated, D143A, DHFR fusion (Arabidopsis thaliana)
Technique: DHFR PCA, deep sequencing
Matrix: yeast
Setting: methotrexate growth selection, single substitutions
Added: (+)-ABA 0.39 µM
Baseline: wild-type fitted maximum
Direction: higher = stronger binding
Starting sequence: PYL1, truncated, DHFR fusion (Arabidopsis thaliana); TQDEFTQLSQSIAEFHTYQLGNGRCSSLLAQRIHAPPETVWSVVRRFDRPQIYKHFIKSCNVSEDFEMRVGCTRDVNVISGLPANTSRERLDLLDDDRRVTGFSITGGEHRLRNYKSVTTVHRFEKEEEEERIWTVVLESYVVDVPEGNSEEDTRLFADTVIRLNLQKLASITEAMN; partner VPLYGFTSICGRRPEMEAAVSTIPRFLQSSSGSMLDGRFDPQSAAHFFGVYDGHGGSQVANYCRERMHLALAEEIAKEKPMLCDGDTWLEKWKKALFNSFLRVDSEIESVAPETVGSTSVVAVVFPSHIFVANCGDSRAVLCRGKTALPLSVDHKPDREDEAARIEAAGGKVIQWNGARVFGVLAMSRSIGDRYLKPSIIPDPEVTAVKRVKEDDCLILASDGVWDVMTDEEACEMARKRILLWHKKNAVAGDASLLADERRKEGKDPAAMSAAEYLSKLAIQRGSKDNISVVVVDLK
For `D95V`, “relative binding score” read 13.5%.
Under “relative binding score”, `P83Y` is recorded as -10.2%.
`E139I` — result for “relative binding score”: -25.6%.
Under “relative binding score”, `C25D` is recorded as -12.5%.
`S27K`: “relative binding score” -6.91%.
For `G148C`, “relative binding score” read 9.29%.
`K126Q`: “relative binding score” 63.7%.
Under “relative binding score”, `D95M` is recorded as -2.72%.
For `L156H`, “relative binding score” read 5.13%.
For `R45N`, “relative binding score” read -24.6%.
Under “relative binding score”, `N165P` is recorded as 13.4%.
`I162S`: “relative binding score” 14%.
Under “relative binding score”, `L91R` is recorded as -6.07%.
`V137I`: “relative binding score” 1.97%.
Under “relative binding score”, `S9Q` is recorded as 62%.
`D75R`: “relative binding score” 27.1%.

Other studies, line by line
The fold induction of `PhoQ, residues 284 288 289 292 302 303 SIHMAM` is reported as 7.97 (PhoP, residues 12 14 15 18 19 LHTVM (Escherichia coli, UniProt P23836); Sort-seq, item: YFP reporter; E. coli; PhoQ-PhoP variant library, added: 10 µM Mg2+; baseline: high Mg2+ state, higher = stronger signaling).

Some of these lines once more (set 1):
`R4Q` — result for “normalised enrichment score”: 2.93.
`F9C` — result for “normalised enrichment score”: 0.423.
`E11C`: “normalised enrichment score” 6.14.
Under “normalised enrichment score”, `R5N` is recorded as 0.223.
Under “normalised enrichment score”, `R5Y` is recorded as 0.0243.
Under “normalised enrichment score”, `E11I` is recorded as 5.2.
